Measured values from different studies.
Each line is one published result; not all experiments were run side by side. ± gives the spread as reported.

O=C(C[Se]C(=O)c1cccnc1Nc1cccc(C(F)(F)F)c1)Nc1cccc(C(F)(F)F)c1
CC50 (NCI60 breast subpanel; NCI60 five-dose screen): 13.4 µM

Cc1ccc(C(C)C)cc1.Cc1ccc(C(C)C)cc1.Cc1ccc(C(C)C)cc1.Cc1ccc(C(C)C)cc1.O=S(=O)([O-])C(F)(F)F.O=S(=O)([O-])C(F)(F)F.O=S(=O)([O-])C(F)(F)F.O=S(=O)([O-])C(F)(F)F.c1ccc2c3c4ccccc4c(c2c1)-c1cn(nn1)-c1cc[n+](cc1)[Ru-]1[O]c2ccc4c5c(ccc(c25)=[O+]1)=[O+][Ru-]([O]4)[n+]1ccc(cc1)-n1cc(nn1)-c1c2ccccc2c(c2ccccc12)-c1cn(nn1)-c1cc[n+](cc1)[Ru-]1[O]c2ccc4c5c(ccc(c25)=[O+]1)=[O+][Ru-]([O]4)[n+]1ccc(cc1)-n1cc-3nn1
G0/G1 phase cells (HepG2; concentration not given, 24 h): 44%

CC(C)C[C@H](NC(=O)[C@H](CC(=O)O)NC(=O)CNC(=O)[C@@H](N)CCCNC(=N)N)C(=O)N[C@@H](C)C(=O)N[C@H](C(=O)N[C@@H](CC(C)C)C(=O)N[C@@H](CCCNC(=N)N)C(=O)N[C@@H](CCC(N)=O)C(=O)N[C@@H](CC(C)C)C(=O)N[C@@H](C)C(=O)N[C@@H](CCC(N)=O)C(=O)N[C@@H](CCC(=O)O)C(=O)N[C@@H](CC(=O)O)C(=O)NCC(=O)N[C@H](C(=O)N[C@H](C(=O)NCC(=O)N[C@H](C(=O)N[C@@H](CCCNC(=N)N)C(=O)NCCOCCOCCOCCOCCOCCOCCOCCOCCOCCOCCOCCOCCC(=O)N[C@@H](CS)C(N)=O)C(C)C)C(C)C)C(C)C)[C@@H](C)O
selectivity ratio (LNCaP prostate carcinoma; cell binding, phage binding, item: output/input phage; 10 min, 37 °C; reference: control phage): 1.3 ± 0.71

CC(C)CC(O)(CC(C)C)c1cn(C(=O)N2CCCC2)nn1
SILAC ratio (mouse T-cells; protein abundance, unenriched SILAC proteomics, item: S100A6; 1 nM, 6 h, protein median; reference: DMSO): 1.03

Cc1cc(Oc2nc(N3CC[C@@H](c4ccncc4)C3)ncc2F)[nH]n1
IC50 (COLO 205; cell proliferation): 66.1 µM

O=C(C[Se]C(=O)c1cccs1)Nc1cccc(C(F)(F)F)c1
GI50 (NCI60 breast subpanel; NCI60 five-dose screen): 1.93 µM

O=c1n(CCNCCOS(=O)(=O)c2ccccc2)c(=O)n(S(=O)(=O)c2ccccc2)c(=O)n1S(=O)(=O)c1ccccc1
viability (A549; cell growth or viability, MTT; 100 µg/mL, 48 h): 28.2%

CC(C)(C)C(=O)OCOP(=O)(OCOC(=O)C(C)(C)C)C1CCCN(O)C1=O (stereo not shown)
log TGI (HCC 2998): -5.25 log M

CSCC[C@H](N)C(=O)N[C@@H](C)C(=O)N[C@@H](Cc1c[nH]c2ccccc12)C(=O)N[C@@H](Cc1c[nH]cn1)C(=O)N[C@@H](CC(=O)O)C(=O)N[C@@H](CC(=O)O)C(=O)N[C@@H](CCC(=O)O)C(=O)N[C@@H](CCC(=O)O)C(=O)N[C@@H](Cc1ccccc1)C(=O)N[C@@H](C)C(=O)N[C@@H](CCCNC(=N)N)C(=O)N[C@@H](CCCNC(=N)N)C(=O)N[C@@H](CCCNC(=N)N)C(=O)N[C@@H](CCCNC(=N)N)C(=O)NCCCCCC(=O)NCCCCC(NC(=O)CCCCCNC(=O)[C@H](CCCNC(=N)N)NC(=O)[C@H](CCCNC(=N)N)NC(=O)[C@H](CCCNC(=N)N)NC(=O)[C@H](CCCNC(=N)N)NC(=O)[C@H](C)NC(=O)[C@H](Cc1ccccc1)NC(=O)[C@H](CCC(=O)O)NC(=O)[C@H](CCC(=O)O)NC(=O)[C@H](CC(=O)O)NC(=O)[C@H](CC(=O)O)NC(=O)[C@H](Cc1c[nH]cn1)NC(=O)[C@H](Cc1c[nH]c2ccccc12)NC(=O)[C@H](C)NC(=O)[C@@H](N)CCSC)C(=O)NCCCCC(NC(=O)C(CCCCNC(=O)CCCCCNC(=O)[C@H](CCCNC(=N)N)NC(=O)[C@H](CCCNC(=N)N)NC(=O)[C@H](CCCNC(=N)N)NC(=O)[C@H](CCCNC(=N)N)NC(=O)[C@H](C)NC(=O)[C@H](Cc1ccccc1)NC(=O)[C@H](CCC(=O)O)NC(=O)[C@H](CCC(=O)O)NC(=O)[C@H](CC(=O)O)NC(=O)[C@H](CC(=O)O)NC(=O)[C@H](Cc1c[nH]cn1)NC(=O)[C@H](Cc1c[nH]c2ccccc12)NC(=O)[C@H](C)NC(=O)[C@@H](N)CCSC)NC(=O)CCCCCNC(=O)[C@H](CCCNC(=N)N)NC(=O)[C@H](CCCNC(=N)N)NC(=O)[C@H](CCCNC(=N)N)NC(=O)[C@H](CCCNC(=N)N)NC(=O)[C@H](C)NC(=O)[C@H](Cc1ccccc1)NC(=O)[C@H](CCC(=O)O)NC(=O)[C@H](CCC(=O)O)NC(=O)[C@H](CC(=O)O)NC(=O)[C@H](CC(=O)O)NC(=O)[C@H](Cc1c[nH]cn1)NC(=O)[C@H](Cc1c[nH]c2ccccc12)NC(=O)[C@H](C)NC(=O)[C@@H](N)CCSC)C(N)=O (stereo partly shown)
osteoclast formation (mouse C57BL/6 BMMs; 0.3 µM, 3 days, with: RANKL; reference: untreated control): 35%

CC1CCC2C(C)C(OC(=O)CCC(=O)N3CCC(Nc4ccc(S(=O)(=O)NC(=O)c5ccc(N6CCN(CC7=C(c8ccc(Cl)cc8)CC(C)(C)CC7)CC6)cc5Oc5cnc6[nH]ccc6c5)cc4[N+](=O)[O-])CC3)OC3OC4(C)CCC1C32OO4 (stereo not shown)
late apoptotic cells (THP-1; annexin V/PI flow cytometry, item: annexin V+/PI+; 0.8 µM, 24 h): 15.6%

Excerpt of the above:
CC(C)(C)C(=O)OCOP(=O)(OCOC(=O)C(C)(C)C)C1CCCN(O)C1=O (stereo not shown)
log TGI (HCC 2998): -5.25 log M
